# Published values collected from several papers.
# Protocols differ between the studies behind these lines. Values joined by “and” are separate records of one study, mostly repeats; a detail may differ. ± marks the error that the study gave.
SMILES,organism,test,system,setting,how to read,quantity,result
N=C(N)c1ccc(OCc2cc(Br)cc(COc3ccc(C(=N)N)cc3)c2)cc1,Escherichia coli,checkerboard,mcr-2 polymyxin-resistant,"concentration not given, 20 h, with: rifampicin",,MIC of compound in combination,3.13 µg/mL
CCOc1ccc2cc(-c3nn(CC4CCN(C)CC4)c4ncnc(N)c34)ccc2n1,Theileria equi,hydroethidine flow cytometry,USDA Florida,"9 µM, 72 h",,% of maximum PPE,24.6%
CC(C)n1ncc2c(C(=O)NCC3(C)CNC3)cc(C3CC3)nc21,enterovirus D68,,recombinant US/MO/14-18947 wild type,5000 nM,,plaque reduction,100%
COc1ccc2nc3cc(Cl)ccc3c(Nc3ccc(C(=O)O)cc3)c2c1,Plasmodium yoelii,,17XL,384-well,,IC50,974 ± 294 nM
COC(=O)[C@H](Cc1ccc(O)cc1)NCc1cc2ccccc2nc1SC,Pseudomonas aeruginosa,,,"64 µg/mL, with: pentamidine 100 µM",baseline: control,growth,48.5%
O=C(c1cc(-c2ccccc2O)on1)N1CCN(C(c2ccccc2)c2ccccc2)CC1,Plasmodium yoelii,,17XL,384-well,,IC50,558 ± 83 nM
O=C(Nc1ccc([N+](=O)[O-])cc1Cl)c1cc(Cl)ccc1O,herpes simplex virus 1,viral replication,"K26, GFP-expressing, 3D bioprinted skin, submerged",,,IC50,360 nM
CCOc1ccc2cc(-c3nn(CC4CCN(C)CC4)c4ncnc(N)c34)ccc2c1,Theileria equi,hydroethidine flow cytometry,USDA Florida,"12 µM, 72 h",,% of maximum PPE,10.2%
O=[N+]([O-])c1ccc2[nH]c(CNCC34CC5CC(CC(C5)C3)C4)nc2c1,Streptococcus pneumoniae,,clinical isolates,,,MIC50,2 mg/L
Cc1ncc([N+](=O)[O-])n1CCO,Trichomonas gallinae,"trophozoite viability, CCK-8",,,,IC50,3.19 µg/mL
COC1=CC(c2ccc[nH]2)=N/C1=C\c1[nH]c(Cc2ccc(OC(F)(F)F)cc2)cc1Cc1ccc(OC(F)(F)F)cc1,Plasmodium yoelii,parasitaemia,mouse,"4-day treatment, parasitaemia day 5",,ED90,2.82 mg/kg/day
COc1c(N2C[C@@H]3CCCN[C@@H]3C2)c(F)cc2c(=O)c(C(=O)O)cn(C3CC3)c12,Streptococcus pneumoniae,broth microdilution,penicillin-resistant isolates,,,MIC90,1 µg/mL
Cc1ccc(NC(=O)N2Cc3[nH]cnc3C[C@H]2c2nc(-c3ccc4c(c3)OCO4)no2)cc1,Caenorhabditis elegans,,N2,25 µM,,mean lifespan,22.3 days
CCCCCCCCc1c(C)[nH]c(C)c(Cl)c1=O,Plasmodium yoelii,,17XL,384-well,,IC50,56 ± 17 nM
Oc1c(I)cc(Cl)c2cccnc12,Trichomonas gallinae,CCK-8,trophozoites,24 h,,IC50,6700 nM
CCOc1ccc2cc(-c3nn(CC4CCNCC4)c4ncnc(N)c34)ccc2c1,Theileria equi,hydroethidine flow cytometry,USDA Florida,"9 µM, 72 h",,% of maximum PPE,8.69%
COC(=O)N[C@H](C(=O)N1CCC[C@H]1c1ncc(-c2ccc(-c3ccc(-c4cnc([C@@H]5CCCN5C(=O)[C@@H](NC(=O)OC)C(C)C)[nH]4)cc3)cc2)[nH]1)C(C)C,Coxsackievirus A21,cell protection,MRC5,,,EC50,> 29000 nM
Cc1[nH]c(/C=C2\N=C(c3ccc[nH]3)C=C2OCc2ccccc2)cc1Cc1ccc(OC(F)(F)F)cc1,Plasmodium yoelii,,CF1 mice,"oral, 25 mg/kg daily for 4 days, day 5",baseline: vehicle,parasitaemia reduction,100%
COc1cccc(C=Cc2nc(=O)c3ccccc3o2)c1OC,Plasmodium yoelii,,17XL,384-well,,IC50,28 ± 10 nM
COCC(=O)N1CCCC(C(=O)NCc2nc(-c3ccccc3)cs2)C1 (racemic),Plasmodium falciparum,,,72 h,,EC50,97 nM
Nc1ccccc1C(=O)NCCCCNc1ccnc2ccccc12,Chromobacterium violaceum,violacein production,ATCC 31532,"40 µM, quorum sensing reporter",,inhibition,23.1%
O=c1cccc(O)c(O)c1O,herpes simplex virus 1,viral replication,,50 µM,,reduction in viral titre,3.99 log10
CCc1nn(C)c2nc(-c3ccc(C(=O)O)cc3)nc(NCc3ccc(F)cc3)c12,Cryptosporidium parvum,,HCT-8,"6 x EC90, 48 h",baseline: DMSO control,parasite number,22.7% and 20.8% and 21.1% and 23.1%
Cc1cc(Nc2ccc(S(F)(F)(F)(F)F)cc2)n2nc(C(C)(F)F)nc2n1,Plasmodium falciparum,microscopy,human malaria patients,"250 mg, mean",,parasite clearance half-life,5.4 h
CCCCCCCCCC(=O)N[C@@H](Cc1c[nH]c2ccccc12)C(=O)N[C@H](CC(N)=O)C(=O)N[C@@H](CC(=O)O)C(=O)N[C@@H]1C(=O)NCC(=O)N[C@@H](CCCN)C(=O)N[C@@H](CC(=O)O)C(=O)N[C@H](C)C(=O)N[C@@H](CC(=O)O)C(=O)NCC(=O)N[C@H](CO)C(=O)N[C@@H]([C@H](C)CC(=O)O)C(=O)N[C@@H](CC(=O)c2ccccc2N)C(=O)O[C@@H]1C,Staphylococcus simulans,broth microdilution,"22, Mueller-Hinton broth, Mg2+ 10 mg/L","16 h, 30 °C, with: Ca2+ 2.5 mM",,MIC,0.063 µg/mL
Nc1nc(-c2ccccc2)nc2[nH]nc(Nc3ccc(C(F)(F)F)cc3)c12,coxsackievirus B3,,"31-1-93, NMRI mice, CVB3 chronic myocarditis","oral, 100 mg/kg twice daily, day 1, dosed days 3 to 10, score scale 0 to 7",direction not given,clinical score,0
O=C(Nc1cccc(C2=NCCN2)c1)Nc1cccc(C2=NCCN2)c1,Theileria equi,"parasite growth, flow cytometry","horse erythrocytes, USDA Florida strain","0.005375 µM, 72 h",,inhibition,42.4%
COC1=C(OC)/C(=C/c2[nH]c(Cc3ccc(OC(F)(F)F)cc3)cc2Cc2ccc(OC(F)(F)F)cc2)N=C1c1ccc[nH]1.Cl,Plasmodium yoelii,,CF1 mice,"oral, 10 mg/kg daily for 4 days, day 5",baseline: vehicle,parasitaemia reduction,98.5%
COC[C@H]1O[C@@H]2O[C@H]3[C@H](OC)[C@@H](OC)[C@@H](O[C@H]4[C@H](OC)[C@@H](OC)[C@@H](O[C@H]5[C@H](OC)[C@@H](OC)[C@@H](O[C@H]6[C@H](OC)[C@@H](OC)[C@@H](O[C@H]7[C@H](OC)[C@@H](OC)[C@@H](O[C@H]8[C@H](OC)[C@@H](OC)[C@@H](O[C@H]1[C@H](OC)[C@H]2OC)O[C@@H]8COC)O[C@@H]7COC)O[C@@H]6COC)O[C@@H]5COC)O[C@@H]4COC)O[C@@H]3COC,Escherichia coli,"LuxR reporter, agonist",DH5α sensor strain,10 µM,,bioluminescence,812 ± 29 RLU
N#Cc1ccc(N[C@@H](CC2CCCCC2)C(=O)N[C@@H]2CCCc3ccccc32)c2ccccc12,Plasmodium yoelii,,17XL,384-well,,IC50,> 20000 nM
Cc1[nH]c(/C=C2\N=C(c3ccc[nH]3)C=C2OC(C)C)cc1Cc1ccc(Cl)cc1.Cl,Plasmodium yoelii,parasitaemia,mouse,"4-day treatment, parasitaemia day 5",,ED90,2.2 mg/kg/day
Cc1[nH]c(C)c(C(F)(F)F)c(=O)c1-c1ccc(Oc2ccc(OC(F)(F)F)cc2)cc1,Plasmodium yoelii,,17XL,384-well,,IC50,358 ± 165 nM
COC1=CC(c2ccc[nH]2)=N/C1=C\c1cc(Cc2ccc(OC(F)(F)F)cc2)c(C)[nH]1.Cl,Plasmodium yoelii,,CF1 mice,"oral, 25 mg/kg daily for 4 days, day 5",baseline: vehicle,parasitaemia reduction,100%
Cc1nc2ccc(-c3ccc(OC(F)(F)F)cc3)cc2c(O)c1C#N,Plasmodium yoelii,,17XL,384-well,,IC50,274 ± 62 nM
Cc1cc(OC(C)C)ccc1C(=O)C(C)(C)NC(=O)c1sccc1C,Botrytis cinerea,lesion diameter,"B05.10, cucumber seedlings","spray, 3 days, 20 °C",,EC95,11.4 µg/mL
N#Cc1cc(-c2nc3ccccc3s2)c(=O)n(NS(=O)(=O)c2ccc(Cl)cc2)c1N,coxsackievirus B4,"viral replication, plaque",BGM,"non-toxic dose, mean of three titres",,plaque reduction,30%
Cc1cc(=O)c(-c2ccc(OCc3ccc(OC(F)(F)F)cc3)cc2)c(C)[nH]1,Plasmodium yoelii,,17XL,384-well,,IC50,710 ± 258 nM
CN[C@H](CC(C)C)C(=O)N[C@H]1C(=O)N[C@@H](CC(N)=O)C(=O)N[C@H]2C(=O)N[C@H]3C(=O)N[C@H](C(=O)N[C@H](C(=O)O)c4cc(O)cc(O)c4-c4cc3ccc4O)[C@H](O)c3ccc(c(Cl)c3)Oc3cc2cc(c3O[C@@H]2O[C@H](CO)[C@@H](O)[C@H](O)[C@H]2O[C@H]2C[C@](C)(N)[C@H](O)[C@H](C)O2)Oc2ccc(cc2Cl)[C@H]1O,Streptococcus pneumoniae,,"penicillin-resistant, 10 isolates",pH 7.0,,MIC50,0.5 mg/L

# Repeated from above:
SMILES,organism,test,system,setting,how to read,quantity,result
COc1c(N2C[C@@H]3CCCN[C@@H]3C2)c(F)cc2c(=O)c(C(=O)O)cn(C3CC3)c12,Streptococcus pneumoniae,broth microdilution,penicillin-resistant isolates,,,MIC90,1 µg/mL
Oc1c(I)cc(Cl)c2cccnc12,Trichomonas gallinae,CCK-8,trophozoites,24 h,,IC50,6700 nM
COC(=O)[C@H](Cc1ccc(O)cc1)NCc1cc2ccccc2nc1SC,Pseudomonas aeruginosa,,,"64 µg/mL, with: pentamidine 100 µM",baseline: control,growth,48.5%
CCOc1ccc2cc(-c3nn(CC4CCN(C)CC4)c4ncnc(N)c34)ccc2c1,Theileria equi,hydroethidine flow cytometry,USDA Florida,"12 µM, 72 h",,% of maximum PPE,10.2%
Cc1cc(=O)c(-c2ccc(OCc3ccc(OC(F)(F)F)cc3)cc2)c(C)[nH]1,Plasmodium yoelii,,17XL,384-well,,IC50,710 ± 258 nM
COC1=C(OC)/C(=C/c2[nH]c(Cc3ccc(OC(F)(F)F)cc3)cc2Cc2ccc(OC(F)(F)F)cc2)N=C1c1ccc[nH]1.Cl,Plasmodium yoelii,,CF1 mice,"oral, 10 mg/kg daily for 4 days, day 5",baseline: vehicle,parasitaemia reduction,98.5%
